Experimental data collected from several papers.
Lines come from different studies, so protocols differ. “And” joins repeats or separate records; there may be more than shown. ± gives the spread as reported.
HLA class I histocompatibility antigen, B alpha chain allele B*44:03: HLA class I histocompatibility antigen, B alpha chain, allele B*44:03 (Homo sapiens, UniProt P01889)
Spike glycoprotein: Spike glycoprotein (Severe acute respiratory syndrome coronavirus 2, UniProt P0DTC2)
Polyprotein P1234 nsP2 protease domain: Polyprotein P1234, nsP2 protease domain (Chikungunya virus, UniProt Q5XXP4)
Chain of UniProt Q5XXP4 (whole entry, looked up): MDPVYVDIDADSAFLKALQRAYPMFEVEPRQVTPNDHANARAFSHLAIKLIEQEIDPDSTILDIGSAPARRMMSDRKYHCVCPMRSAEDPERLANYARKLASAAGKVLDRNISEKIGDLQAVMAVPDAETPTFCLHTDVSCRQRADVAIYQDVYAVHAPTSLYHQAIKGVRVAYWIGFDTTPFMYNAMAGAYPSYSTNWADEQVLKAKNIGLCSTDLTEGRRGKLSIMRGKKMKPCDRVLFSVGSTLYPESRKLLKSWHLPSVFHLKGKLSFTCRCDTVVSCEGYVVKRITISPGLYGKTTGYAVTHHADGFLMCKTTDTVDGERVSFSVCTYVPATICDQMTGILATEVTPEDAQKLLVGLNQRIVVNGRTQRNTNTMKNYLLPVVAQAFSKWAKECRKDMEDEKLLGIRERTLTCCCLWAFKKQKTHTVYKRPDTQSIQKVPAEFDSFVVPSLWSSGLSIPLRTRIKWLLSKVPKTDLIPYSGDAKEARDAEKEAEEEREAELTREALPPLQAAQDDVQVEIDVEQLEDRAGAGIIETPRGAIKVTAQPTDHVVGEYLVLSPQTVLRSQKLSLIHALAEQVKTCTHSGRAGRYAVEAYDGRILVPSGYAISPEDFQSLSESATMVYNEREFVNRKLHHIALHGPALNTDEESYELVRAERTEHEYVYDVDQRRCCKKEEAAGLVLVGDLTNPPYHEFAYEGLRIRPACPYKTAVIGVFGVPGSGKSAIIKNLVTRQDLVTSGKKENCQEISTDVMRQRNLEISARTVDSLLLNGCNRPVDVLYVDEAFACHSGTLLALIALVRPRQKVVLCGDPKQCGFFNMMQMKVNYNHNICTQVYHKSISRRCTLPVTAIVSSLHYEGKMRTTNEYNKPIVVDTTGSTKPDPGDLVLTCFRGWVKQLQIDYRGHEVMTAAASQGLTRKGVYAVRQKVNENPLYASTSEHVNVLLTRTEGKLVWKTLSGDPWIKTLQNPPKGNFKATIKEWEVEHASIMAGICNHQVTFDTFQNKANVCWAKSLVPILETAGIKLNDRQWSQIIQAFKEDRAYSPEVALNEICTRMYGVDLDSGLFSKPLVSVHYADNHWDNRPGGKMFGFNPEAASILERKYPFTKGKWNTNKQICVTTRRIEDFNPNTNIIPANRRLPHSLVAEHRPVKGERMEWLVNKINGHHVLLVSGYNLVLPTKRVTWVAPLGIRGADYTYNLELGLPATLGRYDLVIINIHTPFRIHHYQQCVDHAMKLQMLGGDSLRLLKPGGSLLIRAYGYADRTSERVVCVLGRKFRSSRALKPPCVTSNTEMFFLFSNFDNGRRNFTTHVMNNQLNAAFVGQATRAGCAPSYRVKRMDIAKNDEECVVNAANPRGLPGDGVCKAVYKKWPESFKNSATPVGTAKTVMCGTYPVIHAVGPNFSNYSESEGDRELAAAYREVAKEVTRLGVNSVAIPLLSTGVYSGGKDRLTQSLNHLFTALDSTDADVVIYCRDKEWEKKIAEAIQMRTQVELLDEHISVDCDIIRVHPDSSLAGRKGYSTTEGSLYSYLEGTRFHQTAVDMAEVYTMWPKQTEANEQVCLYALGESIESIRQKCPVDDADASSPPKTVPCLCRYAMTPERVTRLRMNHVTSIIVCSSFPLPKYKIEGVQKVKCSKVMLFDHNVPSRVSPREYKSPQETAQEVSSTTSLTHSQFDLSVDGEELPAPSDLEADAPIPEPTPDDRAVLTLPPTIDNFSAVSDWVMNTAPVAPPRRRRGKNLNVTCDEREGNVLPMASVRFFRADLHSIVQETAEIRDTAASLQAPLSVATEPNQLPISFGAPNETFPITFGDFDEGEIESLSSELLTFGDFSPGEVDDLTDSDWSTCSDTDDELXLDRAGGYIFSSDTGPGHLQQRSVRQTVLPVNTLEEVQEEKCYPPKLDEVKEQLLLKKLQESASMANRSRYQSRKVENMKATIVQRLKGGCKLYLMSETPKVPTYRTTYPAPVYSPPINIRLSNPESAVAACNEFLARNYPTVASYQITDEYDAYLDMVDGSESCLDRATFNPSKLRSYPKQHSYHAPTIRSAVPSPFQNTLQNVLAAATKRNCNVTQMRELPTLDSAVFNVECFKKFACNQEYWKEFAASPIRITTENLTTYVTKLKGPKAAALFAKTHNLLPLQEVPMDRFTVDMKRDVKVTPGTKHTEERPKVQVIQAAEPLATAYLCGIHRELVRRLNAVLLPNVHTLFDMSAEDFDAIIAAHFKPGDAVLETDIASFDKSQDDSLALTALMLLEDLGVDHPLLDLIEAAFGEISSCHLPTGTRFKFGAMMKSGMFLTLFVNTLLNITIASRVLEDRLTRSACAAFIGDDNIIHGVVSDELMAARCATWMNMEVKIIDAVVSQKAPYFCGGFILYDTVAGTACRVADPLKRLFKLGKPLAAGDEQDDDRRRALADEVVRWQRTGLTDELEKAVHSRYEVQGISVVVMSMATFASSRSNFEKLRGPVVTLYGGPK
nanI: Sialidase (nanI, Clostridium perfringens, UniProt A0A0H2YQR1)
rep nsp13 helicase: Replicase polyprotein 1ab, nsp13 helicase (rep, Severe acute respiratory syndrome coronavirus 2, UniProt P0DTD1)
HLA class I histocompatibility antigen, B alpha chain: HLA class I histocompatibility antigen, B alpha chain (Homo sapiens, UniProt P01889)
Chain of UniProt P04756 (whole entry, looked up): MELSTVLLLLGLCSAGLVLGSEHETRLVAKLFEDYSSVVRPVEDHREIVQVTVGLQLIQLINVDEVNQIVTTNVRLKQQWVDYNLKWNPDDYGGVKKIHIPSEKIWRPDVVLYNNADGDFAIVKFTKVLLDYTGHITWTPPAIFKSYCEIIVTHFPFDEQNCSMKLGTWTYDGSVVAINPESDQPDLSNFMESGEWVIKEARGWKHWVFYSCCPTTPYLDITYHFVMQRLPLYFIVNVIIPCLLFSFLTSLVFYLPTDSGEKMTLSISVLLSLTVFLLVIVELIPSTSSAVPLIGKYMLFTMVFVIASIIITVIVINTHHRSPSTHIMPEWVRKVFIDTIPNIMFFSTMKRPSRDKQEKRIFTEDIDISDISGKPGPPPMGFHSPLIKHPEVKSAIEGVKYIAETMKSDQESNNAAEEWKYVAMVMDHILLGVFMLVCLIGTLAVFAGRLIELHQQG
Chain of UniProt P20782 (whole entry, looked up): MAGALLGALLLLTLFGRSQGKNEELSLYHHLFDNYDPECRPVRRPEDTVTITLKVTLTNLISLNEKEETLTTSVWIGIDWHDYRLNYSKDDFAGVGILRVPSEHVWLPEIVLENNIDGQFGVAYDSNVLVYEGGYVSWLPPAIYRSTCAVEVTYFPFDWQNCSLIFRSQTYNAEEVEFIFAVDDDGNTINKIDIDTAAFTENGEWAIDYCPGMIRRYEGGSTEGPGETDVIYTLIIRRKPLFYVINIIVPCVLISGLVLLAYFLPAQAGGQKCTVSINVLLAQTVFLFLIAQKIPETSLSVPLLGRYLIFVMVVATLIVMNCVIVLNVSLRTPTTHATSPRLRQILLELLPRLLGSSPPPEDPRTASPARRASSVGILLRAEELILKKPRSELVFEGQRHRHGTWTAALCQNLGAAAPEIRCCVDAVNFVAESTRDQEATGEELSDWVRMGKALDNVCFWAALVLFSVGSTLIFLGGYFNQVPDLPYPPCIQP
Chain of UniProt P15423 (whole entry, looked up): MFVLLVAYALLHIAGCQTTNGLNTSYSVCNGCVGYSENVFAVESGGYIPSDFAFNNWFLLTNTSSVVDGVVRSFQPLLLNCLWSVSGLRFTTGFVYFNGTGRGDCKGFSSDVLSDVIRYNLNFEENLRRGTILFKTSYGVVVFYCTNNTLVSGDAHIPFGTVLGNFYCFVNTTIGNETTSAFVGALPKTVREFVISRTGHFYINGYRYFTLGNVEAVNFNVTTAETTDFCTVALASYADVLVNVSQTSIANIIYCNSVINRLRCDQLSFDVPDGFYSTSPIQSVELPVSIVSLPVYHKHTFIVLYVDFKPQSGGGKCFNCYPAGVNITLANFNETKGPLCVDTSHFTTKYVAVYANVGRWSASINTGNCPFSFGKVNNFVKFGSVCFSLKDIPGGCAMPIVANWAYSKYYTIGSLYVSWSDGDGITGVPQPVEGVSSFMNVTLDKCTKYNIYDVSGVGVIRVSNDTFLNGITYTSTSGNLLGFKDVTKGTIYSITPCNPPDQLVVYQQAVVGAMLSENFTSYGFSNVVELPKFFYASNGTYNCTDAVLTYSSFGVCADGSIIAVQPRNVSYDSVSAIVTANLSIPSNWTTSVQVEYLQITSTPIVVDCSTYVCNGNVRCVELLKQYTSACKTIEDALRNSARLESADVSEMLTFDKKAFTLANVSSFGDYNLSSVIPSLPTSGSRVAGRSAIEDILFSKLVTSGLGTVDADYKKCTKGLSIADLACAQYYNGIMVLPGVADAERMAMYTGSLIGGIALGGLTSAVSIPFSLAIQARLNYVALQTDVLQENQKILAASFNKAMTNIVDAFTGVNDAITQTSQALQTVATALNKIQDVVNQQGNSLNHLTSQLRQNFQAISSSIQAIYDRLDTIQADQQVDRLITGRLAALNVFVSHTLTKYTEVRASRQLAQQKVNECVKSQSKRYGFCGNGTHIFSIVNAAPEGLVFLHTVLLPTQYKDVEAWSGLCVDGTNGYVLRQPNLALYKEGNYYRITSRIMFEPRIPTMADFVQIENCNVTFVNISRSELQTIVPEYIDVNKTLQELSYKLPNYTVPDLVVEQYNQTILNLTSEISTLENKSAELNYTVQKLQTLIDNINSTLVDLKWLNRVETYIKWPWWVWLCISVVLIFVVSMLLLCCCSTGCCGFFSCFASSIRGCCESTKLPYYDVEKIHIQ
Chain of UniProt Q9IGQ6 (whole entry, looked up): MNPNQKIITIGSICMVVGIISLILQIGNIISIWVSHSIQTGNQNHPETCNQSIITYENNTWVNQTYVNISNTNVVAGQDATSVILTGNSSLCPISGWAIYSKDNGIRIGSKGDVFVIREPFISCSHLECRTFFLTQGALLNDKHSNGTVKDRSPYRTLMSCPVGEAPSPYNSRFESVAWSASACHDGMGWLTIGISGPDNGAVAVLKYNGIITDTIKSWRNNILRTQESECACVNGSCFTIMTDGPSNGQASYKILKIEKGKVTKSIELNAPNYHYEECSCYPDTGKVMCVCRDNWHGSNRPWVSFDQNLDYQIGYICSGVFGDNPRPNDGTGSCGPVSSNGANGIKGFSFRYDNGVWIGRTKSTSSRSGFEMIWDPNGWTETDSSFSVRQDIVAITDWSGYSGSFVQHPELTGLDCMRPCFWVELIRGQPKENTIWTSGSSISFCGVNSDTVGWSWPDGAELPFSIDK

COc1cc2c3cc1Oc1cc(ccc1O)C[C@@H]1c4c(cc(OC)c(O)c4Oc4ccc(cc4)C[C@@H]3N(C)CC2)CC[N+]1(C)C
IC50 (Chrnd/Chrna1/Chrne (Mus musculus, UniProt P02716+P04756+P20782); endplate current amplitude, two-electrode voltage clamp; mouse given myasthenia patient IgG 4 d, mouse hemidiaphragm; membrane potential -80 mV, added: paraoxon): 0.109 µM

CCc1c(C(=O)C(N)=O)c2c(OCC(=O)O)cccc2n1Cc1ccccc1
IC50 (Daboia russelii venom PLA2; enzyme activity, inhibitor; venom from West Bengal, added: NOB substrate): 0.298 µM

CCC(C(=O)Nc1cc(NC2COC2)ccc1C)n1cc(F)cc2nc(SCc3ccc(F)cc3)nc1-2 (stereo not drawn)
IC50 (Replicase polyprotein 1ab, papain-like protease (rep, Severe acute respiratory syndrome-related coronavirus, UniProt P0C6X7); enzyme activity): 0.416 ± 0.082 µM

oseltamivir carboxylate
IC50 (neuraminidase (Influenza A virus, UniProt W8NQL2); enzyme activity, inhibitor; A(H5N8); mean over viruses): 0.00029 ± 8e-05 µM

CCC(C(=O)Nc1ccccc1C)n1cccc2nc(S)nc1-2 (stereo not drawn)
IC50 (Replicase polyprotein 1ab, papain-like protease (rep, Middle East respiratory syndrome-related coronavirus, UniProt K9N7C7); enzyme activity, inhibitor): > 100 µM

CC(C)[C@H](NC(=O)[C@H](CCCNC(=N)N)NC(=O)[C@H](CCCNC(=N)N)NC(=O)[C@H](Cc1ccccc1)NC(=O)[C@H](CCC(=O)O)NC(=O)[C@@H](N)Cc1ccc(O)cc1)C(=O)N[C@@H](CCCCN)C(=O)N[C@@H](CO)C(=O)N[C@@H](Cc1ccc(O)cc1)C(=O)O
IC50 (HLA class I histocompatibility antigen, B alpha chain allele B*44:03; biochemical): 0.014 µM

O=c1cc(-c2ccc(O)cc2)oc2cc(O)c(O)c(O)c12
Kd (Spike glycoprotein; binding, BLI): 52.3 µM

Cn1cc(-c2ncc(C(=O)NCC=CS(C)(=O)=O)s2)cn1
IC50 (Polyprotein P1234 nsP2 protease domain; enzyme activity, inhibitor, FRET; 90 min, 30 min preincubation): 1.2 µM and < 1.5 µM

CCCCCC(=O)N(C)[C@H]1[C@H]([C@H](O)[C@H](O)CO)OC(C(=O)O)=C[C@@H]1O
IC50 (nanI; enzyme activity, inhibitor): > 500 µM

CCC(C(=O)Nc1ccccc1C)n1cccc2nc(SCc3ccc(OC)cc3)nc1-2 (stereo not drawn)
IC50 (Replicase polyprotein 1ab, papain-like protease (rep, Middle East respiratory syndrome-related coronavirus, UniProt K9N7C7); enzyme activity, inhibitor): > 100 µM

Cc1ccc(NC(=O)c2c(Nc3ccccc3)[nH]c(=O)n(O)c2=O)cc1
IC50 (Resolvase OPG149 (OPG149, Vaccinia virus, UniProt Q80HV3)): 0.706 µM

CC[C@H](C)[C@H](NC(=O)[C@H](CC(=O)O)NC(=O)[C@H](CO)NC(=O)[C@H](CC(=O)O)NC(=O)[C@H](CCCCN)NC(=O)[C@H](CCC(N)=O)NC(=O)[C@H](Cc1ccc(O)cc1)NC(=O)[C@H](CCC(=O)O)NC(=O)[C@H](CC(C)C)NC(=O)[C@@H](NC(=O)[C@H](CCC(=O)O)NC(=O)[C@H](CCSC)NC(=O)[C@@H](NC(=O)[C@H](CC(C)C)NC(=O)[C@H](CO)NC(=O)[C@H](CCC(=O)O)NC(=O)[C@H](CC(C)C)NC(=O)[C@H](CC(C)C)NC(=O)[C@H](CCCCN)NC(=O)[C@H](Cc1ccccc1)NC(=O)[C@H](CCC(=O)O)NC(=O)[C@H](CCC(=O)O)NC(=O)[C@H](Cc1ccc(O)cc1)NC(=O)[C@H](CC(C)C)NC(=O)[C@H](CC(C)C)NC(=O)[C@@H](NC(=O)[C@H](CCCCN)NC(=O)[C@@H](N)CC(C)C)C(C)C)[C@@H](C)CC)[C@@H](C)CC)C(=O)N[C@@H](CCCCN)C(=O)N[C@@H](CCC(=O)O)C(=O)N[C@@H](CC(N)=O)C(=O)N[C@@H](C)C(=O)N[C@@H](CCC(=O)O)C(=O)N[C@@H](CC(=O)O)C(=O)N[C@H](C(=O)N[C@@H](CCCCN)C(=O)O)[C@@H](C)O
IC50 (Spike glycoprotein (S, Human coronavirus 229E, UniProt P15423); cell-based): > 5 µM

CC(C)C[C@H](NC(=O)[C@H](Cc1ccc(O)cc1)NC(=O)[C@H](CC(=O)O)NC(=O)[C@@H](NC(=O)[C@H](CCCCN)NC(=O)[C@H](Cc1ccc(O)cc1)NC(=O)[C@H](CO)NC(=O)[C@H](CC(C)C)NC(=O)[C@@H](N)C(C)C)C(C)C)C(=O)O
IC50 (HLA class I histocompatibility antigen, B alpha chain, allele B*08:01 (Homo sapiens, UniProt P01889); biochemical): 0.445 µM

CC[C@H](C)[C@H](NC(=O)[C@H](CC(C)C)NC(=O)[C@H](Cc1c[nH]c2ccccc12)NC(=O)[C@H](CCC(N)=O)NC(=O)[C@@H](NC(=O)[C@H](Cc1ccccc1)NC(=O)[C@H](C)NC(=O)[C@H](CCCCNC(=O)COCCOCCNC(=O)COCCOCCNC(=O)CC[C@H](NC(=O)CCCCCCCCCCCCCCCCCCC(=O)O)C(=O)O)NC(=O)[C@H](CCC(N)=O)NC(=O)[C@H](C)NC(=O)[C@@H](NC(=O)[C@H](CCCCN)NC(=O)[C@H](CC(=O)O)NC(=O)[C@H](CC(C)C)NC(=O)C(C)(C)NC(=O)[C@@H](NC(=O)[C@H](CO)NC(=O)[C@H](Cc1ccc(O)cc1)NC(=O)[C@H](CC(=O)O)NC(=O)[C@H](CO)NC(=O)[C@@H](NC(=O)[C@H](Cc1ccccc1)NC(=O)[C@@H](NC(=O)CNC(=O)[C@H](CCC(=O)O)NC(=O)C(C)(C)NC(=O)[C@@H](N)Cc1ccc(O)cc1)[C@@H](C)O)[C@@H](C)O)[C@@H](C)CC)[C@@H](C)CC)C(C)C)C(=O)N[C@@H](C)C(=O)NCC(=O)NCC(=O)N1CCC[C@H]1C(=O)N[C@@H](CO)C(=O)N[C@@H](CO)C(=O)NCC(=O)N[C@@H](C)C(=O)N1CCC[C@H]1C(=O)N1CCC[C@H]1C(=O)N1CCC[C@H]1C(=O)N[C@@H](CO)C(N)=O
subjects with adverse event (item: treatment-emergent catheter site erythema; healthy subjects; 4.5 mg, multiple ascending dose): 16.7%

CCC(C(=O)Nc1cc(NC2CNC2)ccc1C)n1cc(Br)cc2nc(SCc3ccc(F)cc3)nc1-2 (stereo not drawn)
IC50 (Replicase polyprotein 1ab, papain-like protease (rep, Severe acute respiratory syndrome-related coronavirus, UniProt P0C6X7); enzyme activity): 0.087 ± 0.019 µM

Nc1nc(Nc2ccccc2)nc(NCc2ccco2)c1[N+](=O)[O-]
IC50 (rep nsp13 helicase; helicase ATPase activity, inhibitor, Kinase-Glo luminescence): > 90 µM

C=CC(=O)N1CCC(CC(=O)O)C(F)(F)CC1 (stereo not drawn)
IC50 (Polyprotein P1234 nsP2 protease domain; protease activity, inhibitor, FRET; 90 min, 30 min preincubation): > 200 µM

Cn1cnc(Cn2c(=O)[nH]/c(=N\c3cc4cn(C)nc4cc3Cl)n(Cc3cc(F)c(F)cc3F)c2=O)n1
patients with adverse event (human, moderate renal impairment; oral, 375 mg, vessel puncture site haemorrhage TEAE, Severe severity): 0%

Cn1cnc(Cn2c(=O)[nH]/c(=N\c3cc4cn(C)nc4cc3Cl)n(Cc3cc(F)c(F)cc3F)c2=O)n1
IC50 (Cytochrome P450 2D6 (CYP2D6, Homo sapiens, UniProt P10635); inhibitor; human liver microsomes; 30 min preincubation, preincubation without NADPH, added: dextromethorphan 10 µM): > 100 µM

Nc1ncnc2c([C@@H]3N[C@H](CO)[C@@H](O)[C@H]3O)c[nH]c12
inhibition (Marburg virus; surface glycoprotein expression; HeLa, Musoke; 100 µM, 24 h): 70.8%

Cc1cn([C@H]2[C@H]([C@H](O)[C@H](O)CO)OC(C(=O)O)=C[C@@H]2O)nn1
IC50 (nanI; enzyme activity, inhibitor): 70 µM

CCCC(C(=O)Nc1cc(NC2CNC2)ccc1C)n1cccc2nc(SCc3ccc(F)cc3)nc1-2 (stereo not drawn)
IC50 (Replicase polyprotein 1ab, papain-like protease (rep, Severe acute respiratory syndrome-related coronavirus, UniProt P0C6X7); enzyme activity): 0.731 ± 0.153 µM

C=CC(=O)N1CCCC(C(=O)O)(C(F)(F)F)C1 (stereo not drawn)
IC50 (Polyprotein P1234 nsP2 protease domain; enzyme activity, inhibitor, FRET; 90 min, 30 min preincubation): 8.6 ± 2.8 µM

CC(C)[C@H](NC(=O)[C@H](CCCCN)NC(=O)[C@H](CCCNC(=N)N)NC(=O)[C@H](Cc1ccccc1)NC(=O)[C@H](CCC(=O)O)NC(=O)[C@@H](N)Cc1ccc(O)cc1)C(=O)N[C@@H](CCCCN)C(=O)N[C@@H](CO)C(=O)N[C@@H](Cc1ccc(O)cc1)C(=O)O
IC50 (HLA class I histocompatibility antigen, B alpha chain allele B*44:03; biochemical): 0.0069 µM

COC(=O)c1ccccc1NC(=O)c1noc2c1CCC2
IC50 (rep nsp13 helicase; helicase ATPase activity, inhibitor, Kinase-Glo luminescence): > 150 µM

CC[C@H](C)[C@H](NC(=O)[C@H](C)NC(=O)[C@H](Cc1ccc(O)cc1)NC(=O)[C@H](CCCNC(=N)N)NC(=O)[C@@H](NC(=O)[C@H](C)NC(=O)[C@@H]1CCCN1C(=O)[C@H](CCCCN)NC(=O)[C@@H]1CCCN1C(=O)[C@@H](N)CCCCN)C(C)C)C(=O)O
IC50 (HLA class I histocompatibility antigen, B alpha chain; biochemical): 0.015 µM

O=c1c(O)c(-c2ccc(O)cc2)oc2cc(O)cc(O)c12
Kd (Spike glycoprotein; binding, BLI): 33.3 µM

CCC(C(=O)Nc1ccccc1C)n1cccc2nc([S+]([O-])Cc3ccc(F)cc3)nc1-2 (stereo not drawn)
IC50 (Replicase polyprotein 1ab, papain-like protease (rep, Middle East respiratory syndrome-related coronavirus, UniProt K9N7C7); enzyme activity, inhibitor): > 100 µM

COc1cccc(-c2nc(C(=O)NCC=CS(C)(=O)=O)c(C)[nH]2)c1
IC50 (Polyprotein P1234 nsP2 protease domain; protease activity, inhibitor, FRET; 90 min, 30 min preincubation): 0.59 µM and < 1.5 µM

CC[C@H](C)[C@H](NC(=O)[C@@H](NC(=O)[C@H](CCCNC(=N)N)NC(=O)[C@H](CCSC)NC(=O)[C@H](CC(N)=O)NC(=O)[C@H](Cc1ccc(O)cc1)NC(=O)[C@@H]1CCCN1C(=O)[C@@H](N)C(C)C)C(C)C)C(=O)O
IC50 (HLA class I histocompatibility antigen, B alpha chain; binding, competitor): 26.7 µM

CCC(CC)[C@H](NC(C)=O)[C@@H]1[C@H](O)[C@@H](C(=O)O)C[C@H]1N=C(N)N
IC50 (Neuraminidase (NA, Influenza A virus, UniProt Q9IGQ6); enzyme activity, inhibitor; swine influenza A virus, H1N1): 0.00034 ± 0.00016 µM

Cc1ccc(NC2CNC2)cc1NC(=O)C(C)n1cccc2nc(SCc3ccc(F)cc3)nc1-2 (stereo not drawn)
IC50 (Replicase polyprotein 1ab, papain-like protease (rep, Severe acute respiratory syndrome-related coronavirus, UniProt P0C6X7); enzyme activity): 0.759 ± 0.117 µM

CS(=O)(=O)C=CCNC(=O)C1CCN(c2ccc(F)cc2)C1=O (stereo not drawn)
IC50 (Polyprotein P1234 nsP2 protease domain; protease activity, inhibitor, FRET; 90 min, 30 min preincubation): 30 ± 5 µM

Some of these lines once more:
CCCC(C(=O)Nc1cc(NC2CNC2)ccc1C)n1cccc2nc(SCc3ccc(F)cc3)nc1-2 (stereo not drawn)
IC50 (Replicase polyprotein 1ab, papain-like protease (rep, Severe acute respiratory syndrome-related coronavirus, UniProt P0C6X7); enzyme activity): 0.731 ± 0.153 µM

CCC(C(=O)Nc1cc(NC2COC2)ccc1C)n1cc(F)cc2nc(SCc3ccc(F)cc3)nc1-2 (stereo not drawn)
IC50 (Replicase polyprotein 1ab, papain-like protease (rep, Severe acute respiratory syndrome-related coronavirus, UniProt P0C6X7); enzyme activity): 0.416 ± 0.082 µM

COc1cccc(-c2nc(C(=O)NCC=CS(C)(=O)=O)c(C)[nH]2)c1
IC50 (Polyprotein P1234 nsP2 protease domain; protease activity, inhibitor, FRET; 90 min, 30 min preincubation): 0.59 µM and < 1.5 µM

Nc1nc(Nc2ccccc2)nc(NCc2ccco2)c1[N+](=O)[O-]
IC50 (rep nsp13 helicase; helicase ATPase activity, inhibitor, Kinase-Glo luminescence): > 90 µM

Cc1cn([C@H]2[C@H]([C@H](O)[C@H](O)CO)OC(C(=O)O)=C[C@@H]2O)nn1
IC50 (nanI; enzyme activity, inhibitor): 70 µM
